Assay results from different studies.
Each line is one published result; not all experiments were run side by side.

SMILES	organism	test	system	setting	MIC
CC(C)C[C@@H]1NC(=O)[C@@H](CC(C)C)NC(=O)[C@H](CCN)NC(=O)[C@@H](NC(=O)[C@H](CCN)NC(=O)[C@@H](N)[C@@H](C)O)CCNC(=O)[C@H]([C@@H](C)O)NC(=O)[C@H](CCN)NC(=O)[C@H](CCN)NC1=O	Staphylococcus simulans	broth microdilution	22, cation-adjusted Mueller-Hinton broth	–	> 138 µM
COC1=CC(c2ccc[nH]2)=NC1=CNC(C)(C)C.Cl	Candidozyma auris	broth microdilution	CDC AR Bank #0381	24 h	64 µg/mL
COc1c(NC(=O)c2ccc(NC(=O)[C@H](Cc3c[nH]nn3)NC(=O)c3ccc(NC(=O)/C(C)=C/c4ccc(O)cc4)cc3)cc2)ccc(C(=O)Nc2ccc(C(=O)O)cc2)c1O	Micrococcus luteus	broth microdilution	DSM 1790	–	2 µg/mL
CC[C@H](C)[C@H](N)C1=N[C@H](C(=O)N[C@@H](CC(C)C)C(=O)N[C@H](CCC(=O)O)C(=O)N[C@H](C(=O)N[C@H]2CCCCNC(=O)[C@H](CC(N)=O)NC(=O)[C@@H](CC(=O)O)NC(=O)[C@H](Cc3c[nH]cn3)NC(=O)[C@@H](Cc3ccccc3)NC(=O)[C@H]([C@@H](C)CC)NC(=O)[C@@H](CCCN)NC2=O)[C@@H](C)CC)CS1	Staphylococcus simulans	–	22	18 h, 37 °C, 0.3 mM ZnSO4 LB	0.25 µg/mL
Cc1c(CN(C)C(=O)/C=C/c2cnc3c(c2)CC(N)C(=O)N3)oc2ccccc12 (centres unmarked)	Klebsiella pneumoniae	microbial growth, broth dilution	BAA2470	–	4 µg/mL
CC1C=CC=CC(C)C2C=CC3CC(C)(O)C(Cl)C(C)C3C2C(=O)C(Cl)(Cl)C(=O)C(C)C(=O)O1 (centres unmarked)	Staphylococcus aureus	–	MSSA clinical isolate	PEN CLI ERY TET resistant	0.025 µg/mL
N=C(N)NCCC[C@@H]1NC(=O)[C@@H](CCCNC(=N)N)NC(=O)[C@H](CCCNC(=N)N)NC(=O)[C@@H](C(c2ccccc2)c2ccccc2)NC(=O)[C@@H](C(c2ccccc2)c2ccccc2)NC(=O)[C@@H](C(c2ccccc2)c2ccccc2)NC(=O)[C@@H](CCCNC(=N)N)NC1=O	Paecilomyces variotii	–	MYA-3630	–	8 µg/mL
CC[C@H](C)[C@H](NC(=O)[C@H](CCC(N)=O)NC(=O)[C@H](Cc1ccccc1)NC(=O)[C@H](CC(N)=O)NC(=O)[C@H](CCCCN)NC(=O)[C@H](CC(C)C)NC(=O)[C@H](CCCNC(=N)N)NC(=O)[C@H](CCCCN)NC(=O)[C@H](CCCCN)NC(=O)[C@@H](NC(=O)[C@H](CO)NC(=O)[C@H](CCCCN)NC(=O)CNC(=O)[C@H](CC(C)C)NC(=O)[C@H](CCCCN)NC(=O)[C@H](CCCCN)NC(=O)[C@H](CC(C)C)NC(=O)[C@H](CCCCN)NC(=O)[C@H](CCCCN)NC(=O)[C@H](CCCNC(=N)N)NC(=O)[C@H](CC(C)C)NC(=O)CNC(=O)[C@@H](N)CCCNC(=N)N)[C@@H](C)CC)C(=O)NCC(=O)N[C@@H](Cc1ccccc1)C(=O)N[C@@H](CO)C(=O)N[C@H](C(=O)N1CCC[C@H]1C(=O)N[C@@H](Cc1ccccc1)C(=O)N[C@@H](C)C(=O)NCC(=O)O)C(C)C	Micrococcus luteus	broth microdilution	ATCC 4698	43 h, 37 °C, cation-adjusted Mueller-Hinton broth	4 µg/mL
COc1cc(C(=O)Nc2ccc(C(=O)O)c(O)c2)ccc1NC(=O)c1ccc(NC(=O)[C@H](Cc2c[nH]nn2)NC(=O)c2ccc(NC(=O)/C(C)=C/c3ccc(O)cc3)cc2)cc1	Micrococcus luteus	broth microdilution	DSM 1790	–	4 µg/mL
O=C(NCc1ccccc1)C(CCc1ccccc1)N(CCc1c[nH]cn1)C(=O)c1ccccc1 (racemic)	Micrococcus luteus	–	DSM 1790	–	128 µM
COc1cc(C(=O)Nc2ccc(C(=O)O)c(O)c2OC)ccc1NC(=O)c1ccc(NC(=O)[C@H](Cc2c[nH]nn2)NC(=O)c2ccc(NC(=O)/C(C)=C/c3ccc(O)cc3)cc2)cc1	Micrococcus luteus	broth microdilution	DSM 1790	–	2 µg/mL
CC[C@H](C)[C@@H]1NC(=O)[C@@H]([C@@H](C)O)NC(=O)CNC(=O)[C@H](CC(=O)O)NC(=O)CNC(=O)[C@H](CC(=O)O)NC(=O)CNC(=O)[C@H]2CCCCN2C(=O)[C@@H](NC(=O)[C@H](CC(=O)O)NC(=O)/C=C/CCCCCCCCCC(C)C)CNC(=O)[C@@H]2CCCN2C1=O	Staphylococcus simulans	broth microdilution	22, Mueller-Hinton broth, Mg2+ 10 mg/L	16 h, 30 °C, added: Ca2+ 0 mM	> 128 µg/mL
CN[C@H](CC(C)C)C(=O)N[C@H]1C(=O)N[C@@H](CC(N)=O)C(=O)N[C@H]2C(=O)N[C@H]3C(=O)N[C@H](C(=O)N[C@H](C(=O)NCc4cn(CCCCC(=O)N[C@H](C(=O)N[C@@H](CCN)C(=O)N[C@H]5CCNC(=O)[C@H]([C@@H](C)O)NC(=O)[C@H](CCN)NC(=O)[C@H](CCN)NC(=O)[C@H](CC(C)C)NC(=O)[C@@H](CC(C)C)NC(=O)[C@H](CCN)NC5=O)[C@@H](C)O)nn4)c4cc(O)cc(O)c4-c4cc3ccc4O)[C@H](O)c3ccc(c(Cl)c3)Oc3cc2cc(c3O[C@@H]2O[C@H](CO)[C@@H](O)[C@H](O)[C@H]2O[C@H]2C[C@](C)(N)[C@H](O)[C@H](C)O2)Oc2ccc(cc2Cl)[C@H]1O	Staphylococcus simulans	broth microdilution	22, cation-adjusted Mueller-Hinton broth	20 to 24 h, 37 °C, 0.002% polysorbate 80	0.031 µg/mL
CC[C@H](C)[C@H](NC(=O)[C@H](CCCNC(=N)N)NC(=O)[C@H](CC(=O)O)NC(=O)[C@H](CCCNC(=N)N)NC(=O)[C@H](CC(C)C)NC(=O)[C@H](CC(N)=O)NC(=O)[C@H](CCCNC(=N)N)NC(=O)[C@@H](N)Cc1ccccc1)C(=O)N[C@@H](CCCCN)C(=O)N[C@@H](CC(N)=O)C(=O)N[C@@H](CCCCN)C(=O)N[C@@H](Cc1ccccc1)C(=O)N[C@@H](CCC(=O)O)C(=O)N[C@@H](CC(N)=O)C(=O)N[C@@H](C)C(=O)N[C@@H](CC(C)C)C(=O)N[C@@H](CCCCN)C(=O)N[C@@H](CC(N)=O)C(=O)N[C@H](C(=O)N[C@H](C(=O)N[C@@H](CC(N)=O)C(=O)N[C@@H](CCCCN)C(=O)N[C@@H](CC(C)C)C(=O)N[C@@H](Cc1ccccc1)C(=O)N1CCC[C@H]1C(=O)O)[C@@H](C)CC)C(C)C	Micrococcus luteus	broth microdilution	ATCC 4698	43 h, 37 °C, cation-adjusted Mueller-Hinton broth	8 µg/mL
CN[C@H](CC(C)C)C(=O)N[C@H]1C(=O)N[C@@H](CC(N)=O)C(=O)N[C@H]2C(=O)N[C@H]3C(=O)N[C@H](C(=O)N[C@H](C(=O)O)c4cc(O)cc(O)c4-c4cc3ccc4O)[C@H](O)c3ccc(c(Cl)c3)Oc3cc2cc(c3O[C@@H]2O[C@H](CO)[C@@H](O)[C@H](O)[C@H]2O[C@H]2C[C@](C)(NCc3ccc(OCc4cn(CC(=O)N[C@H](C(=O)N[C@@H](CCN)C(=O)N[C@H]5CCNC(=O)[C@H]([C@@H](C)O)NC(=O)[C@H](CCN)NC(=O)[C@H](CCN)NC(=O)[C@H](CC(C)C)NC(=O)[C@@H](CC(C)C)NC(=O)[C@H](CCN)NC5=O)[C@@H](C)O)nn4)c(OC)c3)[C@H](O)[C@H](C)O2)Oc2ccc(cc2Cl)[C@H]1O	Staphylococcus simulans	broth microdilution	22, cation-adjusted Mueller-Hinton broth	20 to 24 h, 37 °C, 0.002% polysorbate 80	0.031 µg/mL
N=C(N)NCCC[C@@H]1NC(=O)[C@H](CCCNC(=N)N)NC(=O)[C@@H](CCCNC(=N)N)NC(=O)[C@@H](CCCNC(=N)N)NC(=O)[C@@H](C(c2ccccc2)c2ccccc2)NC(=O)[C@@H](Cc2c[nH]c3ccccc23)NC(=O)[C@@H](C(c2ccccc2)c2ccccc2)NC1=O	Paecilomyces variotii	–	MYA-3630	–	8 µg/mL
CCOc1c(NC(=O)c2ccc(NC(=O)c3ccc(NC(=O)[C@H](Cc4c[nH]nn4)NC(=O)c4ccc(NC(=O)/C(C)=C/c5ccc(O)cc5)cc4)cc3)c(OC)c2O)ccc(C(=O)O)c1O	Micrococcus luteus	broth microdilution	DSM 1790	–	0.125 µg/mL
C=C[C@]1(C)C[C@@H](OC(=O)CSc2ccc(NC(=O)c3ccco3)cc2)[C@]2(C)[C@H](C)CC[C@]3(CCC(=O)[C@H]32)[C@@H](C)[C@@H]1O	Mycoplasma gallisepticum	–	chicken lung isolates	60 mg/kg to chickens	0.00391 µg/mL
COc1cc(C(=O)O)ccc1NC(=O)c1ccc(NC(=O)c2ccc(NC(=O)[C@H](Cc3c[nH]nn3)NC(=O)c3ccc(NC(=O)/C(C)=C/c4ccc(O)cc4)cc3)cc2)c(OC)c1	Micrococcus luteus	broth microdilution	DSM 1790	–	4 µg/mL
CN[C@H](CC(C)C)C(=O)N[C@H]1C(=O)N[C@@H](CC(N)=O)C(=O)N[C@H]2C(=O)N[C@H]3C(=O)N[C@H](C(=O)N[C@H](C(=O)NCc4cn(CC(=O)N[C@H](C(=O)N[C@@H](CCN)C(=O)N[C@H]5CCNC(=O)[C@H]([C@@H](C)O)NC(=O)[C@H](CCN)NC(=O)[C@H](CCN)NC(=O)[C@H](CC(C)C)NC(=O)[C@@H](CC(C)C)NC(=O)[C@H](CCN)NC5=O)[C@@H](C)O)nn4)c4cc(O)cc(O)c4-c4cc3ccc4O)[C@H](O)c3ccc(c(Cl)c3)Oc3cc2cc(c3O[C@@H]2O[C@H](CO)[C@@H](O)[C@H](O)[C@H]2O[C@H]2C[C@](C)(N)[C@H](O)[C@H](C)O2)Oc2ccc(cc2Cl)[C@H]1O	Staphylococcus simulans	broth microdilution	22, cation-adjusted Mueller-Hinton broth	20 to 24 h, 37 °C, 0.002% polysorbate 80	≤ 0.008 µg/mL
